Measurements gathered from unrelated publications.
Protocols differ between the studies behind these lines. Numbers after ± are the reported error.

Compound	tested on	test	system	conditions	scale	measurement	result
C[C@H]1CN(C(=O)CC#N)[C@]12CCN(c1ncnc3[nH]ccc13)C2	–	–	healthy Japanese males, plasma	oral, 5 mg single dose	–	AUC(0-last)	167 ng·h/mL
Cc1ccc(Sc2ccccc2N2CCNCC2)c(C)c1	–	item: Pollakiuria	healthy adult women	oral, 5 mg daily, 12 days	–	participants with TEAE	16.7%
O=C(CCc1ccc(O)cc1)c1c(O)cc(O)cc1O	–	–	human plasma	median, both sexes	–	plasma concentration	6040 nM
CN[C@H](CC(C)C)C(=O)N[C@H]1C(=O)N[C@@H](CC(N)=O)C(=O)N[C@H]2C(=O)N[C@H]3C(=O)N[C@H](C(=O)N[C@H](C(=O)O)c4cc(O)cc(O)c4-c4cc3ccc4O)[C@H](O)c3ccc(c(Cl)c3)Oc3cc2cc(c3O[C@@H]2O[C@H](CO)[C@@H](O)[C@H](O)[C@H]2O[C@H]2C[C@](C)(N)[C@H](O)[C@H](C)O2)Oc2ccc(cc2Cl)[C@H]1O	–	starch gel membrane permeability	Gram-negative envelope surrogate	200 µM, 60 min, pH 7.4	–	amount permeated	1.14 nmol
O=C(Nc1nc2cccc(-c3ccc(CN4CCS(=O)(=O)CC4)cc3)n2n1)C1CC1	–	item: nausea	human rheumatoid arthritis patients	oral, 200 mg once daily, 4 weeks, regardless of relatedness	–	treatment-emergent adverse events	25%
O=C(N[C@H](Cc1c[nH]c2ccccc12)C(=O)Nc1ccncc1)c1ccc(-c2cc(C(F)(F)F)ccc2F)cc1F	–	–	Swiss Webster mouse, female, plasma	oral, 50 mg/kg, 2 h, 20% HPβCD vehicle	–	concentration	490 nM
COc1c(O)cc2c(c1O)C(=O)c1c(cc(C)c(O)c1OC)C2=O	HepaRG co-cultured with HK-2	MTT	–	16.67 µM, 48 h	baseline: untreated control	cell viability	109 ± 7.75%
NS(=O)(=O)c1cc(C(=O)O)c(NCc2ccco2)cc1Cl	–	item: headache	healthy men	oral, 8 days, treatment-emergent, crossover trial	–	subjects with adverse event	0%
COc1ccnc(C(=O)NC(CO)C(=O)O)c1O (racemic)	–	aerobic dark soil incubation	clay loam soil	20 °C, persistence endpoint	–	DT50	0.86 days
Cc1c2oc3c(C)ccc(C(=O)N[C@@H]4C(=O)N[C@H](C(C)C)C(=O)N5CCC[C@H]5C(=O)N(C)CC(=O)N(C)[C@@H](C(C)C)C(=O)O[C@@H]4C)c3nc-2c(C(=O)N[C@@H]2C(=O)N[C@H](C(C)C)C(=O)N3CCC[C@H]3C(=O)N(C)CC(=O)N(C)[C@@H](C(C)C)C(=O)O[C@@H]2C)c(N)c1=O	–	LC-MS	children with cancer, plasma	dose not given, 6 h	–	minimum plasma concentration	1.2 µg/L
COc1cc(Nc2ncc3c(n2)-c2ccc(Cl)cc2C(c2c(F)cccc2OC)=NC3)ccc1C(=O)O	–	–	patients	oral, dose not given, grade 2, any attribution, with: pembrolizumab	–	decreased platelet count incidence	13%
COc1c(O)cccc1OS(=O)(=O)O	–	–	human plasma	mean	–	plasma concentration	2820 nM
CC(=O)CC(c1ccccc1)c1c(O)c2ccccc2oc1=O (stereo not drawn)	–	–	Sprague-Dawley rat, male, plasma	oral, 0.2 mg/kg, with: miconazole	baseline: cpd alone	AUC	100%
CCO[C@H]1CCN(Cc2c(OC)cc(C)c3[nH]ccc23)[C@H](c2ccc(C(=O)O)cc2)C1	–	–	human moderate hepatic impairment, plasma	oral, 200 mg single dose, mean	–	unbound Cmax	1150 ng/mL
COc1ccc2c(c1)CN(C(=O)CCN1CCC(Cc3ccccc3)CC1)CC[S@@+]2[O-]	–	telemetry	conscious male beagle dogs	intravenous, 8 mg/kg, 0.5 h	–	systolic blood pressure	145 ± 30 mmHg
O=C(O)CCc1nc(-c2ccccc2)c(-c2ccccc2)o1	COS-7	–	–	100 µM, 24 h, 0.1% DMSO, unit not given	baseline: control	confluence	0.96 ± 0.07
CNC(=O)c1ccc(-c2cnc3ncc(Cc4ccc5ncccc5c4)n3n2)cc1F	–	item: Ascites	other cancer patients	oral, 600 mg twice daily, expansion cohort, grade 3-4	–	patients with adverse event	0%
O=C(O)CCC(=O)O.[2H]C([2H])([2H])Oc1cc(C)c2[nH]ccc2c1CN1CC[C@@H](C2CC2)C[C@H]1c1ccc(C(=O)O)cc1	–	multiple ascending dose	healthy Chinese subjects	200 mg once daily	–	subjects with TEAE Anemia	0%
Cc1cc(-c2nccc3c2ccn3CC(=O)Nc2ccc(-c3cnccn3)cn2)ccn1	–	–	human	SAD part, single 40 mg dose	–	subjects with Wheezing TEAEs	0%
Cc1ccc([C@@H]2O[C@H](CO)[C@@H](O)[C@H](O)[C@H]2O)cc1Cc1ccc(-c2ccc(F)cc2)s1	–	–	Japanese type 2 diabetes patients	400 mg, day 2, 24 h urine collection	baseline: baseline	urinary chloride excretion change	-37 mEq

Compound	tested on	test	system	conditions	scale	measurement	result
C[C@@H](Oc1cc(-c2cnn(C3CCNCC3)c2)cnc1N)c1c(Cl)ccc(F)c1Cl	–	–	human patients, plasma	oral, dose not given, cycle 2 day 1, median, with: avelumab	–	AUCtau, dose-normalized	13 ng·h/mL/mg
COc1ccc([C@@H](O)c2cc(-c3ncnc4cc(N5CCOCC5)ccc34)c(F)cc2Cl)nn1	–	–	locally advanced rectal cancer	oral, 250 mg, with: capecitabine and radiotherapy	–	radiation skin injury TEAE	0%
[18F]c1ccc(-c2ccc3c(c2)[nH]c2ccncc23)cn1	–	ex vivo biodistribution	B6SJL mouse, normal, lungs	intravenous, 30 min	–	SUV	1.71 ± 0.647
CCOc1c([C@H](C)n2nc(C)c3c(N)ncnc32)cc(Cl)c(F)c1[C@@H]1CNC(=O)C1	–	ECG	previously treated B-cell malignancy patients	oral, 30 mg once daily, baseline below thresholds	–	observations with HR ≤100 bpm	97.6%
CC(C)c1nc(CN(C)C(=O)N[C@@H](CCN2CCOCC2)C(=O)N[C@H](CC[C@H](Cc2ccccc2)NC(=O)OCc2cncs2)Cc2ccccc2)cs1	–	item: Photophobia	human	oral, 150 mg	–	drug-related TEAE incidence	0%
Cc1ccc(=O)n(-c2ccccc2)c1	–	–	healthy volunteers, plasma	oral, 600 mg single dose, alone	–	median Tmax	40.2 min
CCc1cc(C(=O)NC)c2nccc(N3CCc4c(cc(Cn5ccnc5)cc4-c4cn(C)nc4C(F)(F)F)C3=O)c2c1	–	–	Sprague Dawley rats	oral, 100 mg/kg twice daily, 7 days	–	cholesterol	2.1 ± 0.48 mmol/L
CC(C)NCCCC[C@@H]1NC(=O)[C@H](Cc2ccc(O)cc2)NC(=O)[C@H](Cc2ccccc2)NC(=O)CC[C@H](C(=O)N[C@@H](CCCCNC(C)C)C(=O)N[C@@H](CCCCNC(=O)[C@H](CCC(=O)O)NC(=O)[C@H](CCC(=O)O)NC(=O)[C@H](CCC(=O)O)NC(=O)CN2CCN(CC(=O)O)CCN(CC(=O)O)CCN(CC(=O)O)CC2)C(N)=O)NC(=O)CNC(=O)[C@H](Cc2ccc3ccccc3c2)NC(=O)[C@@H](CCCNC(=N)N)NC1=O [gallium-68 labelled]	–	–	mouse with Daudi xenograft, muscle	intravenous, 2 h	–	tissue uptake	0.04 %ID/g
CC(C)(Sc1ccncc1-c1ccc(C#N)c2ccccc12)C(=O)O	–	–	human, plasma	oral, 2.5 mg once daily, with: febuxostat 20 mg	–	AUC(0-24)	50.8 ng·h/mL
COc1ccc([C@@H](O)c2cc(-c3ncnc4cc(N5CCOCC5)ccc34)c(F)cc2Cl)nn1	–	–	healthy volunteers, plasma	oral, 100 mg, tablet, fasted, median	–	tlag	0 h
CN(C)[C@@H]1C(O)=C(C(N)=O)C(=O)[C@@]2(O)C(O)=C3C(=O)c4c(O)cccc4[C@@](C)(O)[C@H]3C[C@@H]12	–	starch gel membrane permeability	Gram-negative envelope surrogate	200 µM, 90 min, pH 7.4	–	amount permeated	3.9 nmol
CCC(=O)NS(=O)(=O)c1ccc(-c2c(-c3ccccc3)noc2C)cc1	COS-7	–	–	100 µM, 24 h, 0.1% DMSO, unit not given	baseline: control	necrosis	0.71 ± 0.06
O=c1oc2c(O)c(O)cc3c(=O)oc4c(O)c(O)cc1c4c23	–	–	human plasma	mean, both sexes	–	plasma concentration	138 nM
CC(F)(F)c1nc2nc(CO)cc(Nc3ccc(S(F)(F)(F)(F)F)cc3)n2n1	–	LC-MS/MS	malaria patients, plasma	oral, 800 mg of parent drug	–	Cmax, metabolite	1350 ng/mL
N#CCNC(=O)c1ccc(-c2ccnc(Nc3ccc(N4CCOCC4=O)cc3)n2)cc1	–	–	healthy volunteers, plasma	dose not given, with: ritonavir multiple-dose	baseline: with ritonavir over alone	AUCtau geometric mean ratio	124%
COc1cccc(-c2n[nH]c(SCc3ccccn3)n2)c1OC	–	–	Sprague-Dawley rat, plasma	oral, 30 mg/kg	baseline: female over male	AUC(0-last) ratio	0.92
CC(C)(C(=O)N1CCOc2c(C#N)cncc2C1)C(F)F	–	item: abnormal urine odour	human, both sexes	oral, 10 mg once daily, 14 days, multiple ascending dose	–	subjects with TEAE	12.5%
CC[C@H]1OC(=O)[C@H](C)[C@@H](O[C@H]2C[C@@](C)(OC)[C@@H](O)[C@H](C)O2)[C@H](C)[C@@H](O[C@@H]2O[C@H](C)C[C@H](N(C)C)[C@H]2O)[C@](C)(O)C[C@@H](C)C(=O)[C@H](C)[C@@H](O)[C@]1(C)O	–	starch gel membrane permeability	Gram-negative envelope surrogate	200 µM, 30 min, pH 7.4	–	amount permeated	0.3 nmol
COc1c(O[C@@H]2O[C@H](CO)[C@@H](O)[C@H](O)[C@H]2O)cc2c(c1O)C(=O)c1c(cc(C)c(O)c1OC)C2=O	HepaRG co-cultured with HK-2	MTT	–	133.33 µM, 24 h	baseline: untreated control	cell viability	73.2 ± 6.5%

Some of these lines once more:
Compound	tested on	test	system	conditions	scale	measurement	result
Cc1ccc([C@@H]2O[C@H](CO)[C@@H](O)[C@H](O)[C@H]2O)cc1Cc1ccc(-c2ccc(F)cc2)s1	–	–	Japanese type 2 diabetes patients	400 mg, day 2, 24 h urine collection	baseline: baseline	urinary chloride excretion change	-37 mEq
C[C@@H](Oc1cc(-c2cnn(C3CCNCC3)c2)cnc1N)c1c(Cl)ccc(F)c1Cl	–	–	human patients, plasma	oral, dose not given, cycle 2 day 1, median, with: avelumab	–	AUCtau, dose-normalized	13 ng·h/mL/mg
COc1ccc([C@@H](O)c2cc(-c3ncnc4cc(N5CCOCC5)ccc34)c(F)cc2Cl)nn1	–	–	locally advanced rectal cancer	oral, 250 mg, with: capecitabine and radiotherapy	–	radiation skin injury TEAE	0%
[18F]c1ccc(-c2ccc3c(c2)[nH]c2ccncc23)cn1	–	ex vivo biodistribution	B6SJL mouse, normal, lungs	intravenous, 30 min	–	SUV	1.71 ± 0.647
